# Published values pooled from the literature.
# Each line is one published result; not all experiments were run side by side.
# SLC47A2: Multidrug and toxin extrusion protein 2 (SLC47A2, Homo sapiens, UniProt Q86VL8)
# Chain of UniProt Q86VL8 (whole entry, looked up): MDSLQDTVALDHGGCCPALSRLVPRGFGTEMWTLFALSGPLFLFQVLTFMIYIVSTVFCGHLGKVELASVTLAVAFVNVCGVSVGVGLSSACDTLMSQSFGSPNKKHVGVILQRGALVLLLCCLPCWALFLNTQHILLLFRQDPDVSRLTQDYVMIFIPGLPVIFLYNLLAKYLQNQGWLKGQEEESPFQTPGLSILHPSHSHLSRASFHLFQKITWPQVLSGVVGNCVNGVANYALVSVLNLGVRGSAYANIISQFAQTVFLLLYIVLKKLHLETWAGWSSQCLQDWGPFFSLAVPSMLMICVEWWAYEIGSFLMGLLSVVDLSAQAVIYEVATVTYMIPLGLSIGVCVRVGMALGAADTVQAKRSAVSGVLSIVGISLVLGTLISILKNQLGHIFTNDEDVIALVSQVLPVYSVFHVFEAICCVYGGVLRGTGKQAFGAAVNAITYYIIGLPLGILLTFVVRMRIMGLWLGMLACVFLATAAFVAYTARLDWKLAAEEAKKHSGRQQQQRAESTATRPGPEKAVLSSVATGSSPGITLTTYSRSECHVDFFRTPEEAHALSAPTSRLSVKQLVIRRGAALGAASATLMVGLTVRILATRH
# ABCG2: Broad substrate specificity ATP-binding cassette transporter ABCG2 (ABCG2, Homo sapiens, UniProt Q9UNQ0)
# Chain of UniProt Q9UNQ0 (whole entry, looked up): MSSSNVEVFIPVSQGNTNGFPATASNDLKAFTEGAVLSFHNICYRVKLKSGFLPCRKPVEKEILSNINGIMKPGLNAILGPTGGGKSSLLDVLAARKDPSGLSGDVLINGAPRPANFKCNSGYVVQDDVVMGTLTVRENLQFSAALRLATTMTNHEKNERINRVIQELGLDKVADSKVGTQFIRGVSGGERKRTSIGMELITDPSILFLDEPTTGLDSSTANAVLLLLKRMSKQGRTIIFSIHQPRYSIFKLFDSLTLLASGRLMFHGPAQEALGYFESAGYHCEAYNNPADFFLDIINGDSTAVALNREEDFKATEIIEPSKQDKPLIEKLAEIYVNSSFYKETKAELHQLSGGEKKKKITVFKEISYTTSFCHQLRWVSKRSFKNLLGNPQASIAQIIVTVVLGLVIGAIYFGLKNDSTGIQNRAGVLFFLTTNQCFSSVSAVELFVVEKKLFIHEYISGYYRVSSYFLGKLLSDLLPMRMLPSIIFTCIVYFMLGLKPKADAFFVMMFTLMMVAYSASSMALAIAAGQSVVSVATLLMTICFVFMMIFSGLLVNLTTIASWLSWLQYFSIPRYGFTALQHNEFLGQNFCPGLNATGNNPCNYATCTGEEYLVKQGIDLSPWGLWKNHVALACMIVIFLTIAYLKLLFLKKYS
# Tumor necrosis factor receptor superfamily member 9/Nectin-4: Tumor necrosis factor receptor superfamily member 9/Nectin-4 (Homo sapiens, UniProt Q07011+Q96NY8)
# Chain of UniProt Q07011 (whole entry, looked up): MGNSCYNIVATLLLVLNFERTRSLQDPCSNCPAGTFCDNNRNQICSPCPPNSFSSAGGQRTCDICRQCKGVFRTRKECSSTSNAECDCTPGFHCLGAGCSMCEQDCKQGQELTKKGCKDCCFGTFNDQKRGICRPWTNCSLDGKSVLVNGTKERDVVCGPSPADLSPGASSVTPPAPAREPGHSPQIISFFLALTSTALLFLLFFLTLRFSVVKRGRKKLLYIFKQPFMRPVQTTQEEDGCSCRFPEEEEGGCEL
# Chain of UniProt Q96NY8 (whole entry, looked up): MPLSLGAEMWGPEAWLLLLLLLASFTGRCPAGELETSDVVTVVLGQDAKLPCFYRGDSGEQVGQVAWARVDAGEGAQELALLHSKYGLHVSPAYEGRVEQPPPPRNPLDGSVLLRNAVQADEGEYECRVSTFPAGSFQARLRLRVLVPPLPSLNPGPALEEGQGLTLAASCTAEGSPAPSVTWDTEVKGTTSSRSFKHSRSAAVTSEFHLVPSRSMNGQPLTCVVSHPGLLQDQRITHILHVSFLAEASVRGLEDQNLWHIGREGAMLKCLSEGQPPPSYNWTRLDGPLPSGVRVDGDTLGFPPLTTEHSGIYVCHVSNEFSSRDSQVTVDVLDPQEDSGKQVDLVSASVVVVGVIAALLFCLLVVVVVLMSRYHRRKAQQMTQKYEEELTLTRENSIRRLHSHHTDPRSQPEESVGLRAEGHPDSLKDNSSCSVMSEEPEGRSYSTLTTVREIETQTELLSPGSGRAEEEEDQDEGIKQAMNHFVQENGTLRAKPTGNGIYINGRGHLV
# Chain of UniProt P50750 (whole entry, looked up): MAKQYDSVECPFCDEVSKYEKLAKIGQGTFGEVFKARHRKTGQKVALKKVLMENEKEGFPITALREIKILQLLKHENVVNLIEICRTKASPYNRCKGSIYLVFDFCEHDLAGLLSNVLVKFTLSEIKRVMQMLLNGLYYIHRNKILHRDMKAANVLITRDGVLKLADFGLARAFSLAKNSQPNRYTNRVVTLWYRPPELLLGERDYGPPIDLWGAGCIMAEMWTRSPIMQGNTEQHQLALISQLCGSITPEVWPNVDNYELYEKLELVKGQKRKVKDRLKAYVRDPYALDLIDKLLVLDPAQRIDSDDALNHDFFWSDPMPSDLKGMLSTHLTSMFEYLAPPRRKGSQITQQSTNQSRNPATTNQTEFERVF
# Chain of UniProt Q13936 (whole entry, looked up): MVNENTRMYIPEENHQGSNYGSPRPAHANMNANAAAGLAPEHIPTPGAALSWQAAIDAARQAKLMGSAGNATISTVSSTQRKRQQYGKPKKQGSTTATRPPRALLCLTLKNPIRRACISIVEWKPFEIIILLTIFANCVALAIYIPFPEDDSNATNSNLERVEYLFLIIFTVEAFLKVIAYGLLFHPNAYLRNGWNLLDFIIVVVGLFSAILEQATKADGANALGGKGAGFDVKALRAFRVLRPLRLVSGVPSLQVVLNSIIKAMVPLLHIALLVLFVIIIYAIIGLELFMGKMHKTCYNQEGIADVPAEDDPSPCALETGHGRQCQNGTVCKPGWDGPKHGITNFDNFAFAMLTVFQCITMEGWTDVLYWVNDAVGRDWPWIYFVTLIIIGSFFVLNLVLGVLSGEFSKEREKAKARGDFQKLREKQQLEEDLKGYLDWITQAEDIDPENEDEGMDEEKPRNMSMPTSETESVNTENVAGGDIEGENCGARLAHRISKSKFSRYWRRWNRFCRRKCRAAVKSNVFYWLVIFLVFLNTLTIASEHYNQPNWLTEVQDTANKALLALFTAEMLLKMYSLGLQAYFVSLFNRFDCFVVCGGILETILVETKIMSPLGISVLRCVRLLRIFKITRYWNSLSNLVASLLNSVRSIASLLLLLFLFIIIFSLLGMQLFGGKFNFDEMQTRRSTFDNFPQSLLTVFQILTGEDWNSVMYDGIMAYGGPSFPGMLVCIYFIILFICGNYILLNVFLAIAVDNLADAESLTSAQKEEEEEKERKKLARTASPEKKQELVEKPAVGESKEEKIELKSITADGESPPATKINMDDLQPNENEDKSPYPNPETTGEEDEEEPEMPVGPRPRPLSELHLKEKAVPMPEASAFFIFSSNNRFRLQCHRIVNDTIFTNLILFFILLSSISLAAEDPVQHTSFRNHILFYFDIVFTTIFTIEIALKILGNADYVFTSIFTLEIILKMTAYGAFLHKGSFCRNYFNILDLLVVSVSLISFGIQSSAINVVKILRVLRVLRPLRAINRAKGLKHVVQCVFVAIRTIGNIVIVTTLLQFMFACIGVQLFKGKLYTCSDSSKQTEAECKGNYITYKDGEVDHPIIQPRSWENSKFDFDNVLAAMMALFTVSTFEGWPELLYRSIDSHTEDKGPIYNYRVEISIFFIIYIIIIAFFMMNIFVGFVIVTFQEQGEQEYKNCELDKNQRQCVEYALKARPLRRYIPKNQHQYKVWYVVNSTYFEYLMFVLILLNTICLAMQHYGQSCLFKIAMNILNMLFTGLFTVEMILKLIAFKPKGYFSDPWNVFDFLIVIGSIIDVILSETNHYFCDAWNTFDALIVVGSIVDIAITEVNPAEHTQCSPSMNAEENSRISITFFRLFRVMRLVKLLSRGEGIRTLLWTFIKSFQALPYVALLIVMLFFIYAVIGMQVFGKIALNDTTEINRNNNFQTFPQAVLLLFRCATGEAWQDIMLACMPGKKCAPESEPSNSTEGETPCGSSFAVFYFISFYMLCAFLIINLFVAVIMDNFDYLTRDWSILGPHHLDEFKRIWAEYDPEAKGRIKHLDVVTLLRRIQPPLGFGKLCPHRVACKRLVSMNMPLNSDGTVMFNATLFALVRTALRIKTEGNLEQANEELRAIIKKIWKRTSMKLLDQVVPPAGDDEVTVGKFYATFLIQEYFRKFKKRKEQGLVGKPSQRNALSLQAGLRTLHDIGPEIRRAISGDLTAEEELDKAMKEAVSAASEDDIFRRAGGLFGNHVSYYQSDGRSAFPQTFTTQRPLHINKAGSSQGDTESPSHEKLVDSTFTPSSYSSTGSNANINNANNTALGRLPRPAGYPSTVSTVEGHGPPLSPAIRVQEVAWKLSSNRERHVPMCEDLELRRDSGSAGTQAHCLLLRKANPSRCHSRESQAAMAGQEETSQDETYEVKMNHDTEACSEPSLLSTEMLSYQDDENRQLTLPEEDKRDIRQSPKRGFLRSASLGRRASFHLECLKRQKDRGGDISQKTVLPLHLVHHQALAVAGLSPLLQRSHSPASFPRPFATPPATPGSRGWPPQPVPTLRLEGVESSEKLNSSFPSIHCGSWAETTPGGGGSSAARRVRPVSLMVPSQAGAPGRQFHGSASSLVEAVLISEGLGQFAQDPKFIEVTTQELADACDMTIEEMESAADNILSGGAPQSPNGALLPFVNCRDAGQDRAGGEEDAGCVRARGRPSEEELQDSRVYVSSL
SMILES,target or system,test,system,conditions,how to read,quantity,value
CCN(CCO)CCCC(C)Nc1ccnc2cc(Cl)ccc12 (stereo not drawn),SLC47A2,"transport, inhibitor",transiently transfected cells,"100 µM, 10 (unit not given), added: thiamine",,inhibition,132%
CC[C@H](C)[C@@H]1NC(=O)[C@@H]2CCCN2C(=O)[C@H](CC(C)C)NC(=O)[C@H](CC(C)C)NC(=O)CNC(=O)[C@@H](NC(=O)[C@@H](NC(=O)[C@H](CC(=O)O)NC(=O)CNC(=O)[C@@H](NC(=O)[C@H](C)NC(=O)CNC(=O)[C@H](CCCCN)NC(=O)[C@H](CC(C)C)NC(=O)[C@H](CC(C)C)NC(=O)[C@H](CCCCN)NC(=O)CNC(=O)[C@@H](NC(=O)[C@@H](N)CC(C)C)C(C)C)C(C)C)C(C)C)CSSC[C@@H](C(=O)O)NC1=O,,"RNA-seq, refers to: Pilrb1 mRNA","mouse traumatic brain injury, frontal cortex and hippocampus",dose not given,reference: TBI plus compound vs TBI,log2 fold change,-4.31
COc1ccc2cc1Oc1ccc(cc1)C[C@H]1c3cc(c(OC)cc3CCN1C)Oc1c(OC)c(OC)cc3c1[C@H](C2)N(C)CC3,SLC47A2,"transport activity, inhibitor",,"10 µM, 10 (unit not given), added: thiamine",,inhibition,27%
COc1cc(Nc2ncc(F)c(Nc3ccc4c(n3)NC(=O)C(C)(C)O4)n2)cc(OC)c1OC,"RXRA (Homo sapiens, UniProt P19793)",,,,,IC50,> 10 µM
O=C(Nc1cccnn1)N1CCC(=Cc2cccc(Oc3ccc(C(F)(F)F)cn3)c2)CC1,"CYP2C19 (Homo sapiens, UniProt P33261)","enzyme activity, inhibitor",,"50 µM, added: 3-cyano-7-ethoxycoumarin substrate",,inhibition,89%
C[C@H]1CN(c2n[nH]c3nc(N[C@H]4CC[C@H](NS(=O)(=O)CCC(F)(F)F)CC4)ncc23)CCO1,"CDK9 (Homo sapiens, UniProt P50750)",Kinobeads competition,"HEK293, K562, placenta lysate","20 µM, unit not given",reference: vehicle,remaining binding,0.86
NC(=O)c1ncn([C@@H]2O[C@H](CO)[C@@H](O)[C@H]2O)n1,ABCG2,"transport, inhibitor",,"100 µM, 5 (unit not given), pH 7, added: CCK-8",,inhibition,12.9%
CCCC[C@@H]1NC(=O)[C@H](Cc2ccc(O)cc2)NC(=O)[C@@H]2CCCN2C(=O)[C@H](CC(=O)O)NC(=O)[C@H](C)NC(=O)[C@H](Cc2ccccc2)NC(=O)[C@@H]2CSCCC(=O)N3CN(CN(C3)C(=O)CCSC[C@H](NC(C)=O)C(=O)N[C@@H](CC(C)(C)C)C(=O)N[C@@H](CCC(=O)O)C(=O)N[C@@H](CCC(=O)O)C(=O)N[C@H](CCCCNC(=O)CCc3cn(CCOCCOCCOCCN(CCOCCOCCOCCC(=O)N[C@H]4CSCCC(=O)N5CN6CN(C5)C(=O)CCSC[C@H](NC(=O)[C@@H](CC(=O)O)NC(=O)[C@H](Cc5cccc7ccccc57)NC(=O)[C@@H]5CCCN5C4=O)C(=O)N[C@@H](CCSC)C(=O)N[C@@H](CCCCNC(=N)N)C(=O)N[C@@H](CC(=O)O)C(=O)N[C@@H](Cc4c[nH]c5ccccc45)C(=O)N[C@@H](CO)C(=O)N[C@@H]([C@@H](C)O)C(=O)N4CCC[C@H]4C(=O)N4C[C@H](O)C[C@H]4C(=O)N[C@@H](Cc4c[nH]c5ccccc45)C(=O)N[C@H](C(N)=O)CSCCC6=O)CCOCCOCCOCCn4cc(CCC(=O)NCCCC[C@H]5NC(=O)[C@H](CCC(=O)O)NC(=O)[C@H](CCC(=O)O)NC(=O)[C@H](CC(C)(C)C)NC(=O)[C@@H](NC(C)=O)CSCCC(=O)N6CN7CN(C6)C(=O)CCSC[C@H](NC(=O)[C@H](Cc6ccc(O)cc6)NC(=O)[C@@H]6CCCN6C5=O)C(=O)N[C@@H](Cc5ccccc5)C(=O)N[C@@H](C)C(=O)N[C@@H](CC(=O)O)C(=O)N5CCC[C@H]5C(=O)N[C@@H](Cc5ccc(O)cc5)C(=O)N[C@@H](CCCC)C(=O)N[C@H](C(N)=O)CSCCC7=O)nn4)nn3)C(=O)N3CCC[C@H]3C(=O)N[C@@H](Cc3ccc(O)cc3)C(=O)N2)C(=O)CCSC[C@@H](C(N)=O)NC1=O,Tumor necrosis factor receptor superfamily member 9/Nectin-4,"reporter gene, agonist, luciferase reporter",CD137 Jurkat reporter with HT-1376,"6 h, geometric mean",reference: wells without compound,Emax,63 fold
CC1(C)[C@H](C=C(Cl)Cl)[C@H]1C(=O)OCc1cccc(Oc2ccccc2)c1,human CYP2C8,IVIVE from expressed enzymes,"human, liver, in vivo scaled","0.1 µM, age-specific",,enzyme contribution to CLint,0.04%
CCCC[C@@H]1NC(=O)[C@H](Cc2ccc(O)cc2)NC(=O)[C@@H]2CCCN2C(=O)[C@H](CC(=O)O)NC(=O)[C@H](C)NC(=O)[C@H](Cc2ccccc2)NC(=O)[C@@H]2CSCCC(=O)N3CN(CN(C3)C(=O)CCSC[C@@H](C(=O)N[C@@H](C)C(N)=O)NC1=O)C(=O)CCSC[C@H](NC(C)=O)C(=O)N[C@@H](CC(C)(C)C)C(=O)N1CCC[C@H]1C(=O)N[C@@H](CCC(=O)O)C(=O)N[C@H](CCCCNC(=O)CCc1cn(CCOCCOCCOCCOCCOCCC(=O)NCCCC[C@H]3NC(=O)[C@H](Cc4cccc5ccccc45)NC(=O)[C@@H]4CCCN4C(=O)[C@@H](NC(C)=O)CSCCC(=O)N4CN5CN(C4)C(=O)CCSC[C@H](NC3=O)C(=O)N[C@@H](CCSC)C(=O)N[C@@H](CCCCNC(=N)N)C(=O)N[C@@H](CC(=O)O)C(=O)N[C@@H](Cc3c[nH]c4ccccc34)C(=O)N[C@@H](CO)C(=O)N[C@@H]([C@@H](C)O)C(=O)N3CCC[C@H]3C(=O)N3C[C@H](O)C[C@H]3C(=O)N[C@@H](Cc3c[nH]c4ccccc34)C(=O)N[C@H](C(N)=O)CSCCC5=O)nn1)C(=O)N1CCC[C@H]1C(=O)N[C@@H](Cc1ccc(O)cc1)C(=O)N2,Tumor necrosis factor receptor superfamily member 9/Nectin-4,"reporter gene, agonist, luciferase reporter",CD137 Jurkat reporter with HT-1376,"6 h, geometric mean",reference: wells without compound,Emax,44 fold
CC1(C)[C@H](C(=O)O[C@H](C#N)c2cccc(Oc3ccccc3)c2)[C@@H]1C=C(Br)Br,CES2 human cytosolic,,,"0.1 µM, age 1 year",,enzyme contribution,0.37%
CC1(C)[C@H](C(=O)O[C@H](C#N)c2cccc(Oc3ccccc3)c2)[C@@H]1C=C(Br)Br,ABCG2,"inhibition, inhibitor",,"0.03 to 100 µM, added: sulfasalazine 10 µM",,BCRP ATPase activity,no inhibition
CC[C@H](C)[C@H](NC(=O)[C@H](Cc1ccccc1)NC(=O)[C@H](CCC(=O)O)NC(=O)[C@H](CCCNC(=N)N)NC(=O)[C@H](C)NC(=O)[C@H](C)NC(=O)[C@H](CCC(N)=O)NC(=O)[C@H](CCC(=O)O)NC(=O)[C@H](CCC(=O)O)NC(=O)[C@H](CC(C)C)NC(=O)[C@H](Cc1ccc(O)cc1)NC(=O)[C@H](CO)NC(=O)[C@H](CO)NC(=O)[C@@H](NC(=O)[C@H](CC(=O)O)NC(=O)[C@H](CO)NC(=O)[C@@H](NC(=O)[C@H](Cc1ccccc1)NC(=O)[C@@H](NC(=O)CNC(=O)[C@H](CCC(=O)O)NC(=O)[C@H](C)NC(=O)CCc1c[nH]cn1)[C@@H](C)O)[C@@H](C)O)C(C)C)C(=O)N[C@@H](C)C(=O)N[C@@H](Cc1c[nH]c2ccccc12)C(=O)N[C@@H](CC(C)C)C(=O)N[C@H](C(=O)N[C@@H](CCCNC(=N)N)C(=O)NCC(=O)N[C@@H](CCCNC(=N)N)C(=O)N[C@@H](CCCCNC(=O)COCCOCCNC(=O)COCCOCCNC(=O)CC[C@H](NC(=O)CCCCCCCCCCCCCCCCC(=O)O)C(=O)O)C(=O)NCC(=O)NCC(=O)N[C@@H](CO)C(=O)N[C@@H](CCCCNc1c(NCCCCCN(O)C(=O)CCC(=O)NCCCCCN(O)C(=O)CCC(=O)NCCCCCN(O)C(C)=O)c(=O)c1=O)C(=O)O)C(C)C [zirconium-89 labelled],,,"rat, muscle","iv, 3 nmol/kg, 4 h, ex vivo",,tissue uptake,0.12 %ID/g
COc1cc2c(Oc3ccc4[nH]c(C)cc4c3F)ccnc2cc1OCC1(N)CC1,,,paediatric recurrent refractory sarcoma,8 mg/kg,,grade 3 Hematochezia,0%
Cn1nccc1[C@]1(CNC(=O)c2ccc(F)c(F)c2-c2ccc(C(F)(F)F)cc2)NC(=O)NC1=O,"CACNA1C (Homo sapiens, UniProt Q13936)",inhibitor,human cells,,,highest concentration without inhibition,> 10 µM

# Some of these lines once more:
SMILES,target or system,test,system,conditions,how to read,quantity,value
CC[C@H](C)[C@H](NC(=O)[C@H](Cc1ccccc1)NC(=O)[C@H](CCC(=O)O)NC(=O)[C@H](CCCNC(=N)N)NC(=O)[C@H](C)NC(=O)[C@H](C)NC(=O)[C@H](CCC(N)=O)NC(=O)[C@H](CCC(=O)O)NC(=O)[C@H](CCC(=O)O)NC(=O)[C@H](CC(C)C)NC(=O)[C@H](Cc1ccc(O)cc1)NC(=O)[C@H](CO)NC(=O)[C@H](CO)NC(=O)[C@@H](NC(=O)[C@H](CC(=O)O)NC(=O)[C@H](CO)NC(=O)[C@@H](NC(=O)[C@H](Cc1ccccc1)NC(=O)[C@@H](NC(=O)CNC(=O)[C@H](CCC(=O)O)NC(=O)[C@H](C)NC(=O)CCc1c[nH]cn1)[C@@H](C)O)[C@@H](C)O)C(C)C)C(=O)N[C@@H](C)C(=O)N[C@@H](Cc1c[nH]c2ccccc12)C(=O)N[C@@H](CC(C)C)C(=O)N[C@H](C(=O)N[C@@H](CCCNC(=N)N)C(=O)NCC(=O)N[C@@H](CCCNC(=N)N)C(=O)N[C@@H](CCCCNC(=O)COCCOCCNC(=O)COCCOCCNC(=O)CC[C@H](NC(=O)CCCCCCCCCCCCCCCCC(=O)O)C(=O)O)C(=O)NCC(=O)NCC(=O)N[C@@H](CO)C(=O)N[C@@H](CCCCNc1c(NCCCCCN(O)C(=O)CCC(=O)NCCCCCN(O)C(=O)CCC(=O)NCCCCCN(O)C(C)=O)c(=O)c1=O)C(=O)O)C(C)C [zirconium-89 labelled],,,"rat, muscle","iv, 3 nmol/kg, 4 h, ex vivo",,tissue uptake,0.12 %ID/g
COc1cc2c(Oc3ccc4[nH]c(C)cc4c3F)ccnc2cc1OCC1(N)CC1,,,paediatric recurrent refractory sarcoma,8 mg/kg,,grade 3 Hematochezia,0%
